{"data": "Results collected from several papers", "PARP1": "Poly [ADP-ribose] polymerase 1 (PARP1, Homo sapiens, UniProt P09874)", "note": "± marks the error that the study gave.", "UniProt P09874, sequence (whole entry, looked up)": "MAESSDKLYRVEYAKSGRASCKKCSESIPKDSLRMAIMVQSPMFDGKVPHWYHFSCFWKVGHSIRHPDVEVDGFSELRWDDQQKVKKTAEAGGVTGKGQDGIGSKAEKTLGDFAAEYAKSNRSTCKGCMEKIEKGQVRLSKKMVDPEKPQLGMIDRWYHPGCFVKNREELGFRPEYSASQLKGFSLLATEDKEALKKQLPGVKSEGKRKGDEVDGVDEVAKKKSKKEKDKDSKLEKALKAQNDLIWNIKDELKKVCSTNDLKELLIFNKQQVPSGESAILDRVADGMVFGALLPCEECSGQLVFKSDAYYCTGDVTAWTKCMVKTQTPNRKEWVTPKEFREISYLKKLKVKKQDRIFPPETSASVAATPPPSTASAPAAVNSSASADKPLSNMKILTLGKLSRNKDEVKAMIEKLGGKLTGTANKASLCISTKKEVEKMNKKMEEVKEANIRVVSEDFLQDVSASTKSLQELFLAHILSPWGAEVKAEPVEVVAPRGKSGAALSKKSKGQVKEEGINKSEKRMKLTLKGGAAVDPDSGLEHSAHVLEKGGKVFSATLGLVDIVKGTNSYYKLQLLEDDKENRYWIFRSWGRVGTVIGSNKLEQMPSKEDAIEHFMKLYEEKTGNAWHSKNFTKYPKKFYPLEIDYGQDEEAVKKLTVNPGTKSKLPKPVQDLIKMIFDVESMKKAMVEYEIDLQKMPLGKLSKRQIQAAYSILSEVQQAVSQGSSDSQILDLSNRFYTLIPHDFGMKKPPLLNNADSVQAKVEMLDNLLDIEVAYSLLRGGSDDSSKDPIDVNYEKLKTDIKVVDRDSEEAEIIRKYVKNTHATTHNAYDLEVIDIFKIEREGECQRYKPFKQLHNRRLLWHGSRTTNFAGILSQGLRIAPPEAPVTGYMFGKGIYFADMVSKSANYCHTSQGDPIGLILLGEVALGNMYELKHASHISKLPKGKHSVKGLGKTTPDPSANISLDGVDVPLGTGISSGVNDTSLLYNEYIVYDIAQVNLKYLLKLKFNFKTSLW", "UniProt Q96P56, sequence (whole entry, looked up)": "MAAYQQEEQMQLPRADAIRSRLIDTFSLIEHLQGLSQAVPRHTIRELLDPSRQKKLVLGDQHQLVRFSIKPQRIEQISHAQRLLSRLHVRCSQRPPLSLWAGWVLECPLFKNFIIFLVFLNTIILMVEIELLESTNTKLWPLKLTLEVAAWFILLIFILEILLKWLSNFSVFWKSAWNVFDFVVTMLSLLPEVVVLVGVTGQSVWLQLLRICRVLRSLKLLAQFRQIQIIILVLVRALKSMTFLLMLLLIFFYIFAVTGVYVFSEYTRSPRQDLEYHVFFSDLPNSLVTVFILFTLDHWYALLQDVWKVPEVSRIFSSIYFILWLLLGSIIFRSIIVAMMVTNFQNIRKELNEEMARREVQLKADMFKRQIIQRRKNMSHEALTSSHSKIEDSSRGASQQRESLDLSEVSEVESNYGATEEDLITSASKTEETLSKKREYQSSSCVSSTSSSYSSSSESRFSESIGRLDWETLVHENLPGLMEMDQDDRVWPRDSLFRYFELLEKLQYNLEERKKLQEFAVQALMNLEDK", "UniProt P27694, sequence (whole entry, looked up)": "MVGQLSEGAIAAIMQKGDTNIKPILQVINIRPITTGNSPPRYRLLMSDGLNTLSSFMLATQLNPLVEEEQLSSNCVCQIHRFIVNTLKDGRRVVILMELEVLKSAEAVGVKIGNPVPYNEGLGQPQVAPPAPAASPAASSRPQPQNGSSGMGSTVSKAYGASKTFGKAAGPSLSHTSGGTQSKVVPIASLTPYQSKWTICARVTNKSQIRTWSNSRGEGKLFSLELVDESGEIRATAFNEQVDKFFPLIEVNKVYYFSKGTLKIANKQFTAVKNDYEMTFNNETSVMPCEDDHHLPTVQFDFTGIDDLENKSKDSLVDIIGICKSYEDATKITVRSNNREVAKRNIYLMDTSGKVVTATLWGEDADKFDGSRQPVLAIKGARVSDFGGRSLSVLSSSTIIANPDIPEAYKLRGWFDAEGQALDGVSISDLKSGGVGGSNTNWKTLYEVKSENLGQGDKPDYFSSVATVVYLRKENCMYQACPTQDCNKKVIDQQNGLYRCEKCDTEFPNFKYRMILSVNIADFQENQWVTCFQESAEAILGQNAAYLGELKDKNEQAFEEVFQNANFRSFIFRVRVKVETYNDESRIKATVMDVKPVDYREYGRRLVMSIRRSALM", "UniProt P33527, sequence (whole entry, looked up)": "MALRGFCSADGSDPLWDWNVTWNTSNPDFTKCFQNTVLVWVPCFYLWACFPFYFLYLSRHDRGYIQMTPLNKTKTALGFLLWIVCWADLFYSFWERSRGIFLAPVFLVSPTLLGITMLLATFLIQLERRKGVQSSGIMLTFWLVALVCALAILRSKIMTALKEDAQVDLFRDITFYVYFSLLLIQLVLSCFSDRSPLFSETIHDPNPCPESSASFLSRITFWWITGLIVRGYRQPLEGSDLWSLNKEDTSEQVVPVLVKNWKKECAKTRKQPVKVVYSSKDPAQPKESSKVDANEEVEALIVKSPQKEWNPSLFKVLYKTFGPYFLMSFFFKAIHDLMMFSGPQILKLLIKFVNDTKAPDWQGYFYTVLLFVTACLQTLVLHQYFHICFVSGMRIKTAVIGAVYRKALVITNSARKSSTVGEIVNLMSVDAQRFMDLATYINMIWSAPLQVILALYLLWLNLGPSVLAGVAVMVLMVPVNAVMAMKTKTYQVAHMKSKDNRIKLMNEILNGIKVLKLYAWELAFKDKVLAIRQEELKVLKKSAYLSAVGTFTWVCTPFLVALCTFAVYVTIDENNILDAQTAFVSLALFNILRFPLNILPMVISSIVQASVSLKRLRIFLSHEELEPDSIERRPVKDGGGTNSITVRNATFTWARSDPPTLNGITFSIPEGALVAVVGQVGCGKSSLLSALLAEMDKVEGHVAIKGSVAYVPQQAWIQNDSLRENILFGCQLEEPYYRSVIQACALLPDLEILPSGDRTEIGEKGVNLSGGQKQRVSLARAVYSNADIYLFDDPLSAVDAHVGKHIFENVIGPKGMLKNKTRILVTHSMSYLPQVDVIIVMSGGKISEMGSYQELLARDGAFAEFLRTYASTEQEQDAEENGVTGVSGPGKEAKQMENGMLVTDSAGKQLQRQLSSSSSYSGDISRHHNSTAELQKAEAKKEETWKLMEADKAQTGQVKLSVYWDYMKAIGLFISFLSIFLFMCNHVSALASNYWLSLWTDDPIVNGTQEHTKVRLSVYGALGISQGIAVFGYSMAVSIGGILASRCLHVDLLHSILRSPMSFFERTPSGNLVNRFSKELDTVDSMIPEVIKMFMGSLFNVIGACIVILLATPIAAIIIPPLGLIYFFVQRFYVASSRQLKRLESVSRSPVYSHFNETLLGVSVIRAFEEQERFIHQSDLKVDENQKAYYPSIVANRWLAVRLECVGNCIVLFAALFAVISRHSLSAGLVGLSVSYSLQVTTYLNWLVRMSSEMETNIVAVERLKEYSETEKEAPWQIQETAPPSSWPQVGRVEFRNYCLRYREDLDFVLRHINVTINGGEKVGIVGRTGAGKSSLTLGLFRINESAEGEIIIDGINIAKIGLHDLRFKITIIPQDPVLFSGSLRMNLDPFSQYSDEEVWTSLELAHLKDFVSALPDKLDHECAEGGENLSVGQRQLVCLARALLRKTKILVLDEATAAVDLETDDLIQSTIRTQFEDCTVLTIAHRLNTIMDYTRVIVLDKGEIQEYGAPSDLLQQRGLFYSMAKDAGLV", "UniProt P28074, sequence (whole entry, looked up)": "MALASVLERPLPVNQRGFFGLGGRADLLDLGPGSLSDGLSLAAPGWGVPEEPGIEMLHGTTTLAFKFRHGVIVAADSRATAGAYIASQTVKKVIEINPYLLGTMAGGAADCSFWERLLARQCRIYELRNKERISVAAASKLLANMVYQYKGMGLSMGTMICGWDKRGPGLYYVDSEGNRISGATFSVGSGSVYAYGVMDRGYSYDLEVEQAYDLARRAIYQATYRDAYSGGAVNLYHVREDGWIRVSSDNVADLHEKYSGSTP", "UniProt O00519, sequence (whole entry, looked up)": "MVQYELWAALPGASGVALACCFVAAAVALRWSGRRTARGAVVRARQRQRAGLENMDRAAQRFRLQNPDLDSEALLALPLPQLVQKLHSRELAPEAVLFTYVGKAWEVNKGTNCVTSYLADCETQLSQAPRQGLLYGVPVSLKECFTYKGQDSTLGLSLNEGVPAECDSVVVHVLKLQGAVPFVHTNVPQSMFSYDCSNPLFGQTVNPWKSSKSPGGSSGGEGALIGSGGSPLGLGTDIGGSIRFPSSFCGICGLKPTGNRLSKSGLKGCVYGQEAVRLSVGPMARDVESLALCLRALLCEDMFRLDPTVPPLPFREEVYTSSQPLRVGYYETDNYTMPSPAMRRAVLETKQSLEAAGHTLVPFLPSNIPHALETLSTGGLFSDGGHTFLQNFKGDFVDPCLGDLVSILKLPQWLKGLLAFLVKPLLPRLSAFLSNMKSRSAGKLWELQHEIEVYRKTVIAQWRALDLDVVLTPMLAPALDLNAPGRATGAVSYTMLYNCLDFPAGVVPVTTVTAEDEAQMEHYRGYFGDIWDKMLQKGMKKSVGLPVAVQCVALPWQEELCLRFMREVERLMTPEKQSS", "UniProt P61073, sequence (whole entry, looked up)": "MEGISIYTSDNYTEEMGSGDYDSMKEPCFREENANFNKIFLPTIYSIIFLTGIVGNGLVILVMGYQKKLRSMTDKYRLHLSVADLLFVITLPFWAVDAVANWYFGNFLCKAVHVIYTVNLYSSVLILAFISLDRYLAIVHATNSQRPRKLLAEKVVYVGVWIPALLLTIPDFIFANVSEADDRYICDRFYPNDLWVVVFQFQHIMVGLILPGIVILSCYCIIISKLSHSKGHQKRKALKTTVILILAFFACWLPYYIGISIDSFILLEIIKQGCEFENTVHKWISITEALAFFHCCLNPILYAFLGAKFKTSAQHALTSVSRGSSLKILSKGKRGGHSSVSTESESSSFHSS"}
{"SMILES": "CC[n+]1c(/C=C/N(C)c2ccccc2)n(-c2ccccc2)c2ccc(-c3nc4ccccc4s3)cc21", "target": "Proteasome Macropain subunit MB1 (PSMB5, Homo sapiens, UniProt P28074)", "assay": "enzyme activity", "conditions": "together with: Suc-LLVY-AMC substrate, ATP", "IC50": "1.5 ± 0.3 µM"}
{"SMILES": "CC(=O)O[C@]1(C(C)=O)CC[C@H]2[C@@H]3C[C@H](C)C4=CC(=O)CC[C@]4(C)[C@H]3CC[C@@]21C", "target": "CatSper channel complex (Homo sapiens, UniProt Q7RTX7+Q86XQ3+Q8NEC5+Q96P56)", "assay": "calcium influx, inhibitor", "system": "human sperm", "conditions": "pH 8.2, together with: 140 mM K+", "IC50": "> 10 µM"}
{"SMILES": "COC(=O)C1=C(C)NC(C)=C(C(=O)OCCN(C)Cc2ccccc2)C1c1cccc([N+](=O)[O-])c1 (stereo not shown)", "target": "Multidrug resistance-associated protein 1 (ABCC1, Homo sapiens, UniProt P33527)", "assay": "substrate efflux, inhibitor, flow cytometry", "system": "ABCC1-overexpressing SupT1-Vin cells", "conditions": "together with: BODIPY-FL-vinblastine 500 nM", "IC50": "1.8 ± 1.4 µM"}
{"SMILES": "COC(=O)C(Cc1ccc(CCCC(=O)NCCC(=O)Nc2ccc3nc(C)sc3c2)cc1)C(=O)OC", "target": "L-lactate dehydrogenase B chain (LDHB, Homo sapiens, UniProt P07195)", "assay": "inhibitor, NADH fluorescence", "conditions": "pyruvate competition, together with: 150 µM NADH, 200 µM pyruvate", "IC50": "> 200 µM"}
{"SMILES": "COc1cccc2cc(-c3nnc(SCC(=O)Nc4ccc(Cl)cc4)n3-c3ccccc3)oc12", "target": "fungal tyrosinase", "assay": "enzyme activity, inhibitor, dopachrome absorbance", "conditions": "pH 6.8, 37 °C, together with: L-tyrosine substrate", "IC50": "4.88 ± 1.14 µM"}
{"SMILES": "COc1ccc(Cn2cc(CNC(=O)OCc3cn(Cc4cccc(OC)c4)nn3)nn2)cc1", "target": "Fatty-acid amide hydrolase 1 (FAAH, Homo sapiens, UniProt O00519)", "assay": "enzyme activity, inhibitor, fluorescence", "conditions": "cell membranes", "IC50": "0.0094 µM"}
{"SMILES": "COc1cc(CCC(=O)CC(=O)CCc2ccc(O)c(OC)c2)ccc1O", "target": "Hsd3b1 (Rattus norvegicus, UniProt P22071)", "assay": "enzyme activity, inhibitor", "system": "rat testicular microsomes", "conditions": "lower bound from 100 µM screen, together with: pregnenolone", "IC50": "≥ 100 µM"}
{"SMILES": "COc1ccc(-c2cc(=O)c3c(OC)c([C@@H]4O[C@H](CO)[C@@H](O)[C@H](O)[C@H]4O)c(OC)cc3o2)cc1OC", "target": "Glycogen synthase kinase-3 beta (GSK3B, Homo sapiens, UniProt P49841)", "assay": "enzyme activity, inhibitor, ADP detection", "IC50": "239 µM"}
{"SMILES": "CC(=O)c1ccc(NC(=O)CNNc2nc3ccccc3c(=O)n2-c2ccccc2)cc1", "target": "PARP1", "assay": "enzyme activity, inhibitor, absorbance", "IC50": "0.0904 µM"}
{"SMILES": "NC(=O)c1cccc2c1OC(c1ccc(Br)cc1)C(=O)N2 (stereo not shown)", "target": "PARP1", "IC50": "> 2.5 µM"}
{"SMILES": "OCl", "target": "Helix pomatia β-glucuronidase", "assay": "enzyme activity", "conditions": "1 h, pH 7.0, 37 °C, together with: p-nitrophenyl glucuronide", "IC50": "705 ± 41.4 µM"}
{"SMILES": "O=C(NCc1ccc(F)cc1)C1CCN(S(=O)(=O)c2cc(Cl)cc(Cl)c2)CC1", "target": "Na(+)/citrate cotransporter (Homo sapiens, UniProt Q86YT5)", "assay": "citrate uptake, inhibitor", "system": "HepG2", "conditions": "30 min preincubation, inhibitor also during uptake", "IC50": "0.118 ± 0.022 µM"}
{"SMILES": "CC[C@@H](C(=O)O)[C@H]1CCN[C@@H]1C(=O)O", "target": "AMPA receptor, rat", "assay": "binding", "system": "cortical synaptosomes", "conditions": "together with: [3H]-AMPA", "IC50": "> 100 µM"}
{"SMILES": "CC(=O)Oc1cc(-c2coc3cc(OC(C)=O)c(OC(C)=O)c(OC(C)=O)c3c2=O)cc(OC(C)=O)c1OC(C)=O", "target": "Cell division cycle 7-related protein kinase, with DBF4 (CDC7, Homo sapiens, UniProt O00311)", "assay": "enzyme activity, inhibitor, ADP-Glo luminescence", "conditions": "together with: ATP 12.5 µM", "IC50": "1.01 ± 0.04 µM"}
{"SMILES": "Cn1c(=O)c(=O)n(C)c2cc(S(=O)(=O)Nc3ccc(C(=O)O)cc3)ccc21", "target": "Dipeptidyl peptidase 4 (DPP4, Homo sapiens, UniProt P27487)", "assay": "enzyme activity, inhibitor, fluorescence", "IC50": "0.00074 µM"}
{"SMILES": "CC(=O)n1cc[nH]c1=S", "target": "mbtI (Mycobacterium tuberculosis, UniProt P9WFX1)", "assay": "enzyme activity, inhibitor, continuous fluorescence", "conditions": "together with: chorismate", "IC50": "> 200 µM"}
{"SMILES": "CCN(CC)c1ccc(C2CC(c3ccc(Br)cc3)=NN2C(=O)CCC(=O)O)cc1 (stereo not shown)", "target": "Replication protein A 70 kDa DNA-binding subunit (RPA1, Homo sapiens, UniProt P27694)", "assay": "protein-nucleic acid interaction, inhibitor, mobility shift", "IC50": "> 100 µM"}
{"SMILES": "c1nc2c(NCc3ccc(CNCCCNC4CCCCC4)cc3)nc(N3CCC(C4CCNCC4)CC3)nc2[nH]1", "target": "C-X-C chemokine receptor type 4 (CXCR4, Homo sapiens, UniProt P61073)", "assay": "ligand displacement, radioligand", "conditions": "cell membranes", "IC50": "0.0516 µM"}
{"SMILES": "CCC(NC(=O)[C@H](CC(C)C)NC(=O)OCc1ccccc1)C(=O)C(=O)NCc1cc(OC)cc(OC)c1 (stereo partly shown)", "target": "Calpain-2 catalytic subunit (Capn2, Mus musculus, UniProt O08529)", "assay": "enzyme activity, inhibitor", "system": "mouse pons-cerebellum membranes", "conditions": "together with: calcium 2 mM", "IC50": "0.044 µM"}
{"note": "For quick reference, copied from above:"}
{"SMILES": "COC(=O)C1=C(C)NC(C)=C(C(=O)OCCN(C)Cc2ccccc2)C1c1cccc([N+](=O)[O-])c1 (stereo not shown)", "target": "Multidrug resistance-associated protein 1 (ABCC1, Homo sapiens, UniProt P33527)", "assay": "substrate efflux, inhibitor, flow cytometry", "system": "ABCC1-overexpressing SupT1-Vin cells", "conditions": "together with: BODIPY-FL-vinblastine 500 nM", "IC50": "1.8 ± 1.4 µM"}
{"SMILES": "COC(=O)C(Cc1ccc(CCCC(=O)NCCC(=O)Nc2ccc3nc(C)sc3c2)cc1)C(=O)OC", "target": "L-lactate dehydrogenase B chain (LDHB, Homo sapiens, UniProt P07195)", "assay": "inhibitor, NADH fluorescence", "conditions": "pyruvate competition, together with: 150 µM NADH, 200 µM pyruvate", "IC50": "> 200 µM"}
{"SMILES": "CCC(NC(=O)[C@H](CC(C)C)NC(=O)OCc1ccccc1)C(=O)C(=O)NCc1cc(OC)cc(OC)c1 (stereo partly shown)", "target": "Calpain-2 catalytic subunit (Capn2, Mus musculus, UniProt O08529)", "assay": "enzyme activity, inhibitor", "system": "mouse pons-cerebellum membranes", "conditions": "together with: calcium 2 mM", "IC50": "0.044 µM"}
